Results collected from several papers.
Parts stem from different laboratories: compare values within a part only. Substitutions count along the parent as printed.

Study 1
Target: RNA binding protein fox-1 homolog 2, RRM domain, GST-SBP tag (RBFOX2, Homo sapiens, UniProt O43251-10, residues 100-194)
Method: RNA Bind-n-Seq
Molecule type: RNA
Sample: in vitro
Concentration: 365 nM
Setting: natural RNA segment, single round, ends assumed
Reference: no-protein control
Reading: higher = stronger binding
Shared flanks, not repeated: GGGAGUUCUACAGUCCGACGAUC … UGGAAUUCUCGGGUGCCAA
Target sequence (chain): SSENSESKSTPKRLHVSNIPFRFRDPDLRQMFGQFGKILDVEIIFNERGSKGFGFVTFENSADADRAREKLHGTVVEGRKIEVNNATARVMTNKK
Under “RBNS enrichment (R)”, `AAGAAUGUAUGAAGAACUGAAACCCUACCAUUUUUAUUCUUCUUUUACAUUAAAUUGUUGAGAACAGGUUGUGUCUGUUUGCUUCUUGAUCCUCCAACUUCUCAGCACAC` is recorded as 0.709.
`GAAUAAAAUAUGUUGGUGGUAUUAACACCUCCAGUAAGAUAAGUCAUUGGUACGGUUUUUCUAAGGGCCGCAGUGAGAUGUAGCAGAAGAAAUAUGUUUAUUUUGGGCAA` — result for “RBNS enrichment (R)”: 0.306.
For `CUAGGCAGGUUUGACAAAGGUCAGUAAUACGGUUUCCCCUGGGGUUGACCAGAUGUUCCAAAAUAUCUGCAUCCACCUGGAGAUGCAGCUAAGUGGGUCCUUAUGUACAC`, “RBNS enrichment (R)” read 0.888.
`UUCUCUACCCUUUUAAAGGCAAAAGUAUUGGGAUGCAAUACUAUCUUAAUGUCCCUAUCUGUGGUGUGUGUGCACUUGCUGUGACCUUCCCAGUAGUCCCUCCAUGACAG` — result for “RBNS enrichment (R)”: 0.418.
`ACUGUGUUGACACUCAUGACCCUUUUUUUAAACCGUUAAAGGGAAGUUCGGUGUUGGAGCGAUACUCAAUGUAGUCAGUCUACACCUGGACGUGUGGGCCACUUAAGCCC`: “RBNS enrichment (R)” 0.293.
For `UAGAAAGUAAAACUCCUUUUGAAGUGUCCCAAGGACUGGGUCAGUUAGAACCUGUCUGCCACUAUCUGAUGACUUACAUUGUGGUUUUCUACAAGCCACCUCAGUUAACU`, “RBNS enrichment (R)” read 0.534.
For `UCCCCAACCCCCGACCCCACAAACAGGGCCUCUGUAAUCCUCCAGCUAACUUCCUACAAACAUCUGCCUGGAAGAUUAGUAGAAUCCUAAUUCUAGGCUGGAAUGAGCUU`, “RBNS enrichment (R)” read 0.376.
`GAGGGAACAGCCUCCUGGGUCUUCCUUCUGGUCAUCUCCUUGGGGCAGCACAGGACCACUUCAUGGCUGUCUAGUUAUGGUCCCUGGAGGGCUAUUUGCCCACCUUCACU` — result for “RBNS enrichment (R)”: 0.156.

Study 2
Target: RING finger protein unkempt homolog, zinc fingers 1-6, GST-SBP tag (UNK, Homo sapiens, UniProt Q9C0B0, residues 30-357)
UniProt Q9C0B0, sequence (30-357, looked up): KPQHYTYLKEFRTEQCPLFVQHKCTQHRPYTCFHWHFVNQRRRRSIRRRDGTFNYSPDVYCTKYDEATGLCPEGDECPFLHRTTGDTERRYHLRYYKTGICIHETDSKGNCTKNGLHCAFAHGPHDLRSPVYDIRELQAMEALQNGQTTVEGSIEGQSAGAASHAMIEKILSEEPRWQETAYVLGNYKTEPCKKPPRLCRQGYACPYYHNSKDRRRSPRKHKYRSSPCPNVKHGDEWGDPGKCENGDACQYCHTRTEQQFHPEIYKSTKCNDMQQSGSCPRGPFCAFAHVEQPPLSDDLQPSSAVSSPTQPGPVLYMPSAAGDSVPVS
Method: RNA Bind-n-Seq
Molecule type: RNA
Sample: in vitro
Concentration: not given
Setting: RNA with constant flanks, human and mouse sites, ends assumed
Reference: input RNA pool
Reading: higher = stronger binding
Shared flanks, not repeated: GGGAGUUCUACAGUCCGACGAUC … CAACAGAGGAUUGAGCAUCA
The bound/input enrichment of `UGCUUGAGGCCCCUUACAAGAAGGAUGAGAACAAGUUGAACAGUGCUAACGGCCAUGAAGAACGUAGCAAAAAGAGAAAAAAAAGCAAGAGCAGAAGUCGUAGUCAUGAGAGAAAAAGAA` is reported as 0.891 ratio.
`UUAAUUGAUUUUCCUUUGGGGUUCCAGAUAAUAUUUUCUACAGAUUUUGAAAAAUGUAAUAAUAUUAAUGCAGUAUUGCAACAGGGGUGCAAUUUAAGGCUAUGUGAUAGAGGGUUAUUU` has a bound/input enrichment of 0.759 ratio.
With `CUGAUAAUAGCCUAAGUCUUCUUUUCUUUUUUUUAGGCAUACUGAAUUUCUGUUUUAAAAUCCAUUGCAUGAAAAUUCAAUUUGCCUUGGUAUAUGCAGUUAGCAUUGCCAUUUUAAAAA` the bound/input enrichment was 1.1 ratio.
`AGCAAAGACGCAAAGGUUCCUUCUCCCCCUCCUGGACAUAAAUGGAAGGAAGUCCGACAUGAUAACAAGGUUACUUGGCUGGUCUCCUGGACAGAGAAUAUCCAAGGUUCUAUCAAAUAU` gave a bound/input enrichment of 0.199 ratio.
With `AUAAGAGGUAUUGCCCUUAGAGCACUCCUCACUCCCCCAAUCUCCAAAUCCUACCUCUUCAGGCAGAGUGAAUGAGUGGCUUAUAGCAGUGGCCCUCAGUAACCAGAAGUUCUGUCUUGA` the bound/input enrichment was 0.228 ratio.
`AACCAUCCAGGCCAAAUAAGCGCCGGCUAUGCCCCUGUAUUGGAUUGCCACACGGCUCACAUUGCAUGCAAGUUUGCUGAGCUGAAGGAAAAGAUUGAUCGCCGUUCUGGUAAAAAGCUG` has a bound/input enrichment of 0.305 ratio.
For `AAUUCAUCCCUCGUGCACAUCCUGUUGUGUUUAAGUCACCAGAUAUUUUGUUCCCAUCAGUUUAGCCCAGAGAUAGACAGUAGAAUGCAAAUACCUCCCUCCCCUAAACUGACUGGACGG`, the bound/input enrichment was 0.485 ratio.
For `AGGACGCCAAGAGUUUUAAGGAAUAUAGGGGGAUUAAAGUAUGGAGAUACAGAAGAAACCACUAAGUCUGAUGUCCAAAUGGGCACACUGUCAGUUUUGUUUCCCUUCAGUUGUUUGAUG`, the bound/input enrichment was 0.357 ratio.

Study 3
Target: CCNA2, cyclin fold, Cln2 fusion (human)
Method: yeast growth competition, sequencing
Sample: yeast
Setting: strong parent motif
Reference: not given
Reading: higher = stronger binding
Starting sequence: CDC25A docking peptide (human); PPHRRRLLFACSP
For `PPHRKRLLLACSP [R5K F9L]`, “normalised enrichment score” read 0.792.
`PPHRRRLLFHCSP [A10H]` — result for “normalised enrichment score”: 2.93.
`PPHRRRLLFACSE [P13E]` — result for “normalised enrichment score”: 2.56.
For `PPHRRRLHFACSP [L8H]`, “normalised enrichment score” read 2.33.
`PPHRRTLLFACSP [R6T]`: “normalised enrichment score” 1.04.
`PPHVRRLLFACSP [R4V]`: “normalised enrichment score” 3.42.
For `YPHRRRLLFACSP [P1Y]`, “normalised enrichment score” read 2.78.
Under “normalised enrichment score”, `PPHRSRLLFACSP [R5S]` is recorded as 1.9.
Under “normalised enrichment score”, `PPHRRRLQFACSP [L8Q]` is recorded as 2.23.
Under “normalised enrichment score”, `PPHRRRLCFACSP [L8C]` is recorded as 2.86.
Under “normalised enrichment score”, `NPHRRRLLFACSP [P1N]` is recorded as 2.67.
For `PPHRRMLLFACSP [R6M]`, “normalised enrichment score” read 2.32.
Under “normalised enrichment score”, `PPHRRRLLFMCSP [A10M]` is recorded as 3.
For `PPHRRRFLFACSP [L7F]`, “normalised enrichment score” read 1.89.
Under “normalised enrichment score”, `PPHRRRLLNACSP [F9N]` is recorded as 1.58.
`PPHRRDLLFACSP [R6D]` — result for “normalised enrichment score”: 0.426.
Under “normalised enrichment score”, `PPHRLRLLFACSP [R5L]` is recorded as 2.49.
For `PPHRMRLLFACSP [R5M]`, “normalised enrichment score” read 1.78.
`PAHRRRLLFACSP [P2A]` — result for “normalised enrichment score”: 2.04.
`PPHRRRLLFACGP [S12G]`: “normalised enrichment score” 3.01.
Under “normalised enrichment score”, `PPGRRRLLFACSP [H3G]` is recorded as 3.63.
Under “normalised enrichment score”, `PPHRRPLLFACSP [R6P]` is recorded as -0.321.
Under “normalised enrichment score”, `PPHRRRLLFRCSP [A10R]` is recorded as 2.28.
`PPHRHRLLFACSP [R5H]` — result for “normalised enrichment score”: 1.64.
Under “normalised enrichment score”, `PPHRRRLLFACAP [S12A]` is recorded as 2.02.

Study 4
Target: Phosphate system positive regulatory protein PHO4, full length, GST-tagged (PHO4, Saccharomyces cerevisiae, UniProt P07270, residues 1-312)
Method: competition protein-binding microarray
Molecule type: double-stranded DNA, one strand shown
Sample: in vitro
Concentration: 2 µM
Setting: whole 60-bp probe, lowest competitor level
With: Cbf1 competitor, 0.05 µM
Reading: higher = stronger binding
Shared flanks, not repeated: … GTCTTGATTCGCTTGACGCTGCTG
Target sequence (chain): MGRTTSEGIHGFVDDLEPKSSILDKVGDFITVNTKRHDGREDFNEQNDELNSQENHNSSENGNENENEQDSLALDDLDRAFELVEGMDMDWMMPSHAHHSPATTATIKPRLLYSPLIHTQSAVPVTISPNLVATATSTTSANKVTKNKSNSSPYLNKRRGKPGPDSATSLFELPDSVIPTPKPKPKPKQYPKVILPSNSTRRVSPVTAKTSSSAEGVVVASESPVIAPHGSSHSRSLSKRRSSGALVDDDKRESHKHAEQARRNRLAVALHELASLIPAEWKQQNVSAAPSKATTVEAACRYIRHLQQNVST
`AAATTACTAAGTTGTCACCGGACTTACCCCGTATGA` gave a fluorescence intensity of 3030 a.u.
The fluorescence intensity of `ATAAATCGTTGGAGTGACCTGGCGTTGGGGTAATTC` is reported as 2980 a.u.
With `ATTCTAACCCTGATGAACGTGTCGGTCAACTTACCC` the fluorescence intensity was 11700 a.u.
For `TCAAACAGCACAGTCTACATGACGCCTGGTGATTTG`, the fluorescence intensity was 5100 a.u.
With `CGGGGTTAAGTTTGTCACTGAACTTGCTTGCAGCAG` the fluorescence intensity was 3580 a.u.
For `CACCACTTCATTCCACCCGTGGTGACGCTGAGACAA`, the fluorescence intensity was 7490 a.u.
For `TTTTCAAAAATATTGCACGGGCTTTCTGTATATTGA`, the fluorescence intensity was 9530 a.u.
`AAATCATTATTTACGCGCGTGCAAATTTCGCCATCA` gave a fluorescence intensity of 9560 a.u.
`GTCTTGTCTCATTGAAAGGTGGGTGTCCCCACTTCA` gave a fluorescence intensity of 4240 a.u.
For `GGAGCGTATTGTAACCAGATTTCCTTGGGCCAGAAG`, the fluorescence intensity was 3000 a.u.
With `CAGTAAACAAACTCGCACCGGTCGCCGTTGTTCTTA` the fluorescence intensity was 3080 a.u.
With `GTTAATTAATCAAGCAACGTGCGGAGTTTTATCACA` the fluorescence intensity was 14900 a.u.
With `AAAGCGGTAATTTGAACTGTGGGTGCAGATATCTAT` the fluorescence intensity was 4240 a.u.
The fluorescence intensity of `TCTCTCCATTCGGTTGATGTGATGCTTTGCTGTAAA` is reported as 4360 a.u.
For `CTTTCCCGATCTTGATTAGTGGGTGTAGCACATTTG`, the fluorescence intensity was 4790 a.u.
With `TGCGCAACAACTTAACACGTGTTTTTATGTCTAGAA` the fluorescence intensity was 18000 a.u.
`CTAACGAAGGTTTGACGAGTGGGTGACAAGCCAAGT` has a fluorescence intensity of 3920 a.u.
`GCCTGTCCGTTGCTGCACATGCTTGCGTAGGGCCTT` has a fluorescence intensity of 10300 a.u.

A few entries again (study 4):
The fluorescence intensity of `ATAAATCGTTGGAGTGACCTGGCGTTGGGGTAATTC` is reported as 2980 a.u.
With `CGGGGTTAAGTTTGTCACTGAACTTGCTTGCAGCAG` the fluorescence intensity was 3580 a.u.
For `GGAGCGTATTGTAACCAGATTTCCTTGGGCCAGAAG`, the fluorescence intensity was 3000 a.u.
`AAATCATTATTTACGCGCGTGCAAATTTCGCCATCA` gave a fluorescence intensity of 9560 a.u.
The fluorescence intensity of `TCTCTCCATTCGGTTGATGTGATGCTTTGCTGTAAA` is reported as 4360 a.u.
`GTCTTGTCTCATTGAAAGGTGGGTGTCCCCACTTCA` gave a fluorescence intensity of 4240 a.u.
For `CTTTCCCGATCTTGATTAGTGGGTGTAGCACATTTG`, the fluorescence intensity was 4790 a.u.
